Measurements pooled from the literature.
Parts stem from different laboratories: compare values within a part only.

Sample 1 — technique: RNAcompete; form: RNA; matrix: in vitro; concentration: 20 nM; notes: 7-mer, probes averaged, single round; baseline: mean of 7-mers; direction: higher = stronger binding; measurement: 7-mer Z-score
Target: PABPC1L2, full length, GST fusion (mouse, UniProt A0ABA7IW68)
Target sequence (chain): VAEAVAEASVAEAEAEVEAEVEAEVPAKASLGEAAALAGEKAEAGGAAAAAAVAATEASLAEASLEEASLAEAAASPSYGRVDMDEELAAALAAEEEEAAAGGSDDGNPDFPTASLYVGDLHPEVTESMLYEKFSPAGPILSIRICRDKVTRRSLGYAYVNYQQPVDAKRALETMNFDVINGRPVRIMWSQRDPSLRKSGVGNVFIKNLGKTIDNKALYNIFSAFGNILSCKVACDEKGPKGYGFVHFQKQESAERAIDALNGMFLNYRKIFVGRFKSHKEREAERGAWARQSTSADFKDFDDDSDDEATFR
GUGGAUC: 0.206
CGGAGCC: -0.142
CGGUACG: -0.0337
CUCGAUG: -0.144
CUCUAUU: -0.338
AACCUAC: -0.012
GAGCGGC: 0.0243
CCGUACA: -0.2
UUCUGGC: -0.358
GGGAUGA: 0.318
GGAAGUA: -0.124
GUGACUC: -0.291
GAAGGCU: 0.0877
AGGACUG: 0.144
CGCAAUA: -0.11
GUUCCGG: -0.32
UUUCUGU: -0.496
AUAUAAA: 1.83
UAAUCCG: -0.208
UUAGUAU: -0.117
AUGGGUA: 0.0569

Sample 2 — technique: protein binding microarray; form: double-stranded DNA, one strand shown; matrix: in vitro; concentration: not given; baseline: not given; direction: higher = stronger binding; measurement: E-score
Target: Histone acetyltransferase KAT6A, winged helix 2, GST fusion (KAT6A, Homo sapiens, UniProt Q92794, residues 85-181)
Notes: 8-mer, flanks averaged, mean of 2 arrays, mostly near background
Residues (chain): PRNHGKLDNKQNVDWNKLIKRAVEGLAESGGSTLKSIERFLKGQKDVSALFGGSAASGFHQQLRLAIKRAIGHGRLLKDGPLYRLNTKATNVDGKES
GCGCTTCC: -0.0809
ACTAGGTG: -0.0919
CGACGTAC: 0.0487
CTCACGCA: 0.209
ACGAGATG: -0.0362
TCTGAACA: -0.0753
TACCCAGA: -0.0115
AGTACAAA: -0.152
CTCCTAAC: -0.0708
CACCTTGA: -0.0334
AATGGCCG: -0.0152
CTCAAATA: -0.0871
ACTCATAC: -0.0907
CTTTTTCC: 0.109
CCGTACAC: -0.133
GAATGGAC: -0.0846
ATGGGTAA: 0.0583
CGTTCAAA: 0.0431
AATCGGGA: 0.0661
ACTCCTAA: 0.0139
CCTCACCA: 0.0402
CGACTAGC: 0.0918
AGCCTCCT: 0.026
AACTTGCC: -0.0669
AAACTAGT: -0.178

Sample 3 — technique: aptamer microarray, sandwich; form: DNA with 2'F-ANA; matrix: in vitro; concentration: 200 nM; added: Cy3 exosite-II aptamer, 400 nM; direction: higher = stronger binding; measurement: mean fluorescence intensity; oligonucleotide: GGTTGGTGTGGTTGG
Target: Prothrombin, mature alpha-thrombin (F2, Homo sapiens, UniProt P00734)
Notes: whole 15-mer aptamer, many near background
2'F-ANA at 1 3 5 6 7 8 11 15: 61.4 a.u.
2'F-ANA at 1 2 3 6 7 9 10 14 15: 53.2 a.u.
2'F-ANA at 2 3 5 6 9 10 11 13 14 15: 49.1 a.u.
2'F-ANA at 3 5 7 12 15: 260 a.u.
2'F-ANA at 1 6 7 9 10 12 13 14: 53.2 a.u.
2'F-ANA at 3 5 7 8 9 11 12 13 14: 87.7 a.u.
2'F-ANA at 1 2 4 7 10 11: 48.8 a.u.
2'F-ANA at 3 4 8 10 14: 235 a.u.
2'F-ANA at 2 3 6 8 10 12 13: 370 a.u.
2'F-ANA at 2 3 4 5 6 9 10 13: 47.3 a.u.
2'F-ANA at 1 5 6 7 8 9 10 11 13: 52 a.u.
2'F-ANA at 3 4 6 7 8 9 15: 608 a.u.
2'F-ANA at 2 6 8 10 11 12 13 14: 88.4 a.u.
2'F-ANA at 1 2 4 5 7 10 12 14 15: 72.8 a.u.
2'F-ANA at 1 5 6 9 11 13 15: 50.2 a.u.
2'F-ANA at 2 4 6 7 8 10 12 14 15: 101 a.u.
2'F-ANA at 2 7 13 15: 401 a.u.
2'F-ANA at 2 3 4 7 8 10 12 14: 237 a.u.
2'F-ANA at 1 11 13: 151 a.u.
2'F-ANA at 1 3 5 6 8 9 10 11 13 14 15: 50.6 a.u.
2'F-ANA at 4 5 7 10 12 15: 49.6 a.u.
2'F-ANA at 3 4 7 8 9 11 13 15: 547 a.u.
2'F-ANA at 2 3 5 10 11 14 15: 64.5 a.u.

Sample 4 — technique: RNA Bind-n-Seq; form: RNA; matrix: in vitro; concentration: not given; notes: RNA with constant flanks, ends assumed; baseline: input RNA pool; direction: higher = stronger binding; measurement: bound/input enrichment
Target: RING finger protein unkempt homolog, zinc fingers 1-6, GST-SBP tag (UNK, Homo sapiens, UniProt Q9C0B0, residues 30-357)
Chain of UniProt Q9C0B0 (30-357, looked up): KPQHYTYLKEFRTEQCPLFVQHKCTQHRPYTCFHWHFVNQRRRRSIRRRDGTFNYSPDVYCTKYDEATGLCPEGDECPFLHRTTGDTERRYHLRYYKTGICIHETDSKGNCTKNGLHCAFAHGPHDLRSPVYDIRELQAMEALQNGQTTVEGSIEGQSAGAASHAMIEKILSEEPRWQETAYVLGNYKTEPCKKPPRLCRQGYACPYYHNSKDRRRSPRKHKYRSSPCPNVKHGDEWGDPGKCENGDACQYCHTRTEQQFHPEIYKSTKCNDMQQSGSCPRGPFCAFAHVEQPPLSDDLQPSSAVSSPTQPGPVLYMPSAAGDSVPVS
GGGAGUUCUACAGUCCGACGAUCACUAACAGGCCAUUUAUUUCCCAGAAAAUCCACUUUCCUGACUUUUCUACCAGAGACAUACACCGGAAUUAUGUUGAUUGUGUGCGAUGGUUAGGCGAUUUGAUACUUUCCAAGUCUUGUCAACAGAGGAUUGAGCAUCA: 0.249 ratio
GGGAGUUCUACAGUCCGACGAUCCGAGUGGAUCAGGGGGCUGCAACAGCUCUCAGAAAGGAGAAUACCAGCAACAUCUUUUACCGCAAAAAUACUGACUAUCCUGAACUUCAGCAGCAAAACACAGAUUCAAAUUACCAGACCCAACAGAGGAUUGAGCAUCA: 0.275 ratio
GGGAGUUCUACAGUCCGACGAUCUUUAAUGUAUAAAGAUUUUCUAGGAAAUGAUAUUGUGUAUUAAGACAUUCCUUAAUUAAAUCCGGACAAAAUGGCUGCUGUAUAUUUACAAUAUGGAAUUCUGAGUUAAGUACCGCCCUUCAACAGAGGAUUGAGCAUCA: 0.923 ratio
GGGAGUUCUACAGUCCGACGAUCGGGUGGUGGGUGUGUGUGUGUGUGUGUGUGUGUGUGUGUGUGUGUGUGUUUGGCUGUGGGUCCGUUGUGCCGUUCUGCUGGAACACCGUGGGAAGGCAGUAGACGCGGGCAGUCAGCUAGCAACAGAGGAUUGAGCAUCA: 0.531 ratio
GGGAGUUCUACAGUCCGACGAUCUUCAAAGAGAAAACCCAGCAGUGGAAGUUGCUUGGCCAAUCCCAAGAUAAUGAAAAGGAAUCCGCUGCCCUCUUCCAGCUAUGGCUAGAGACCAAAGAUCAGGCCUUCUGUAAGCAAGAACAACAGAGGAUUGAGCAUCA: 0.147 ratio
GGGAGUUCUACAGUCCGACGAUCGGUCUAAACAAAUGUGAAGUUAGUCAUAGGCGAGCCUUUCAUGGCUGGAAUGAGUUUGAUAUCCGUGAAGAUGAGCCACUGUGGAAGAAGUAUAUUUCUCAGUUUAAAAAUCCCCUUAUUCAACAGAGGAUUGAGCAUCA: 0.388 ratio
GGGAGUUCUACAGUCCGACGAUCGGGCGGCCGGUGGGGGAAUCCCCUGCCUUGGCCUUGCCUCCCCUUCCUGCCACGUGCCCCCCGUUAUUUUUUUUUUUUUAACACCAUGUGAUUAAGGUCGGCGCUGCCUCCCCCGACCCACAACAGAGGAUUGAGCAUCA: 4.77 ratio
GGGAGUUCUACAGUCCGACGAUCAGGACAGUGCAGAAUUAAACCGUGUUGAAGACCAGUGGAAAUUGUAUAAUUUAACUUGGAUUCCGGCAGGAAGUGAAAUAUGGGAGGAGUAAAGAAAACUGAAGAAUUUAAAGUUUUCCUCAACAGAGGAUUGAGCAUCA: 0.367 ratio
